Measurements from different studies.
Protocols differ between the studies behind these lines.
Organism: Escherichia coli

SMILES | assay | system | conditions | endpoint | value
CC[C@H](C)[C@H](N)C(=O)N[C@@H](CC(C)C)C(=O)N[C@@H](CO)C(=O)N[C@@H](C)C(=O)N[C@@H](C)C(=O)N[C@@H](Cc1ccc(O)cc1)C(=O)N[C@@H](CO)C(=O)NCC(=O)N[C@H](C(=O)N[C@H](C(=O)N[C@@H](CO)C(=O)N[C@@H](CC(C)C)C(=O)N[C@H](C(=O)NCCCCCC(=O)N[C@@H](Cc1c[nH]c2ccccc12)C(N)=O)[C@@H](C)CC)[C@@H](C)CC)[C@@H](C)CC |  | pb3 |  | growth inhibitory concentration | ≥ 10 µM
O=C(O)[C@@H]1Cc2c([nH]c3ccccc23)[C@@H](c2ccccc2)N1 |  | BL21(DE3) | 250 µM, 18 h | growth inhibition | 0%
CC[C@H](C)[C@H](NC(=O)[C@H](CCCCN)NC(=O)[C@H](CCCCN)NC(=O)[C@H](CC(C)C)NC(=O)[C@H](CCCCN)NC(=O)[C@H](CCC(=O)O)NC(=O)[C@H](CCCCN)NC(=O)[C@@H](NC(=O)[C@H](CCCCN)NC(=O)[C@H](CC(N)=O)NC(=O)[C@H](CCCNC(=N)N)NC(=O)[C@H](Cc1ccccc1)NC(=O)[C@H](CCCCN)NC(=O)[C@H](CCCNC(=N)N)NC(=O)[C@H](CC(C)C)NC(=O)[C@H](CCCNC(=N)N)NC(=O)[C@H](CCCCN)NC(=O)[C@H](CCCNC(=N)N)NC(=O)[C@@H](N)CC(C)C)[C@@H](C)CC)C(=O)NCC(=O)N[C@@H](CCC(N)=O)C(=O)N[C@@H](CCCCN)C(=O)N[C@H](C(=O)N[C@@H](CCC(N)=O)C(=O)NCC(=O)N[C@@H](Cc1ccccc1)C(=O)N[C@H](C(=O)N1CCC[C@H]1C(=O)N[C@@H](CCCCN)C(=O)N[C@@H](CC(C)C)C(=O)O)C(C)C)[C@@H](C)CC | inhibition zone | D. J45b |  | lethal concentration | 1.41 µM
CC[C@H](C)[C@H](NC(=O)[C@H](CCCNC(=N)N)NC(=O)[C@H](CCCCN)NC(=O)[C@H](CC(C)C)NC(=O)[C@H](CC(C)C)NC(=O)CN)C(=O)N[C@@H](CCCCN)C(=O)N[C@H](C(=O)N[C@@H](CC(C)C)C(=O)N[C@@H](CC(C)C)C(=O)NCCCC[C@H](NC(=O)[C@H](CCCCNC(=O)[C@H](CC(C)C)NC(=O)[C@H](CC(C)C)NC(=O)[C@@H](NC(=O)[C@H](CCCCN)NC(=O)[C@@H](NC(=O)[C@H](CCCNC(=N)N)NC(=O)[C@H](CCCCN)NC(=O)[C@H](CC(C)C)NC(=O)[C@H](CC(C)C)NC(=O)CN)[C@@H](C)CC)[C@@H](C)O)NC(=O)[C@H](CC(C)C)NC(=O)[C@H](CC(C)C)NC(=O)[C@@H](NC(=O)[C@H](CCCCN)NC(=O)[C@@H](NC(=O)[C@H](CCCNC(=N)N)NC(=O)[C@H](CCCCN)NC(=O)[C@H](CC(C)C)NC(=O)[C@H](CC(C)C)NC(=O)CN)[C@@H](C)CC)[C@@H](C)O)C(N)=O)[C@@H](C)O | checkerboard | ATCC 25922 | together with: gentamicin | FIC index | 0.562
C[C@]1(COC(=O)Cc2ccc(O)c(O)c2)[C@H](C(=O)O)N2C(=O)/C(=C/c3ccccn3)[C@H]2S1(=O)=O | broth microdilution | TG1 expressing CMY-2 | 16 µg/mL | MIC of ceftazidime | ≤ 0.06 µg/mL
CC[C@H](C)[C@H](NC(=O)[C@@H]1CCCN1C(=O)[C@H](CCCNC(=N)N)NC(=O)[C@@H]1CCCN1C(=O)[C@@H]1CCCN1C(=O)[C@@H](NC(=O)[C@@H]1CCCN1C(=O)[C@H](CCCNC(=N)N)NC(=O)[C@@H]1CCCN1C(=O)[C@H](CC(C)C)NC(=O)[C@H](Cc1ccc(O)cc1)NC(=O)[C@H](CO)NC(=O)CNC(=O)[C@H](CCCCN)NC(=O)[C@H](CC(=O)O)NC(=O)[C@@H](N)C(C)C)[C@@H](C)O)C(=O)N[C@@H](Cc1ccc(O)cc1)C(=O)N[C@@H](CC(N)=O)C(=O)N[C@@H](CCCNC(=N)N)C(=O)N[C@@H](CC(N)=O)C(=O)NCC(=O)N1CCC[C@H]1C(=O)N[C@@H](CCCNC(=N)N)C(=O)N[C@@H](CC1CCCCC1)C(=O)N[C@@H](Cc1ccccc1)C(=O)N[C@@H](CCC(N)=O)C(=O)N[C@@H](CC(C)C)C(=O)N[C@@H](CC(=O)O)C(=O)O | broth microdilution | D22 |  | MBC | 16 µg/mL
CC[C@H](C)[C@H](NC(=O)[C@H](CO)NC(=O)[C@H](CO)NC(=O)[C@H](Cc1ccccc1)NC(=O)CN)C(=O)N[C@@H](Cc1ccccc1)C(=O)N[C@@H](CCCNC(=N)N)C(N)=O |  | ATCC 8739 | together with: 6 µM NH4Cl | MBC | > 128 µM
CCCCCCCCCCCCCCC(=O)N[C@@H](CCCCN)C(=O)N[C@@H](CCCCN)C(=O)N[C@@H](CCCCN)C(=O)N[C@@H](CCCCN)C(N)=O |  | K12 |  | MBC | 32 µg/mL
CC[C@H](C)[C@H](NC(=O)[C@H](CCCCN)NC(=O)[C@H](CCCCN)NC(=O)[C@H](Cc1c[nH]c2ccccc12)NC(=O)[C@H](CC(N)=O)NC(=O)[C@@H](NC(=O)COCCOCCOCCOCCOCCOCCOC(=O)NCCCCCCNC(=O)NCCCCCCNC(=O)Nc1nc(=O)cc(C)[nH]1)C(C)C)C(=O)N[C@@H](CC(C)C)C(=O)NCC(=O)N[C@@H](CCCCN)C(=O)N[C@H](C(=O)N[C@H](C(=O)N[C@@H](CCCCN)C(=O)N[C@H](C(=O)N[C@H](C(=O)N[C@@H](CCCCN)C(N)=O)C(C)C)C(C)C)[C@@H](C)CC)[C@@H](C)CC |  | ATCC 8937, RPMI medium | 24 h, 37 °C | LC99.9 | 7.5 µM
N[C@@H](CN[C@@H](CN[C@@H](CC(=O)O)C(=O)O)C(=O)O)C(=O)O |  | expressing blaNDM-1, Mueller-Hinton broth | together with: meropenem 2 µg/mL | rescue concentration | 8 µg/mL
CCCCCCCCCCCCCCCCC(=O)N[C@@H](CCCCN)C(=O)N[C@@H](CCCCN)C(=O)N[C@@H](CCCNC(=N)N)C(=O)N[C@@H](CCCCN)C(=O)N[C@@H](CCCCN)C(N)=O |  | K12 |  | MBC | 32 µg/mL
CC[C@H](C)[C@H](NC(=O)[C@H](CO)NC(=O)[C@H](CO)NC(=O)[C@H](Cc1ccccc1)NC(=O)CN)C(=O)N[C@@H](Cc1ccccc1)C(=O)N[C@@H](CCCNC(=N)N)C(=O)NCC(=O)N[C@H](C(=O)N[C@@H](C)C(=O)N[C@@H](CCCCN)C(=O)N[C@@H](Cc1ccccc1)C(=O)N[C@@H](C)C(=O)N[C@@H](CO)C(=O)N[C@@H](CCCCN)C(=O)NCC(=O)N[C@@H](CC(C)C)C(=O)NCC(=O)N[C@@H](CCCCN)C(=O)N[C@@H](CC(=O)O)C(=O)N[C@@H](CC(C)C)C(=O)N[C@@H](C)C(=O)N[C@@H](CCCNC(=N)N)C(N)=O)C(C)C |  | ATCC 8739 | 2 × MIC | time to complete killing | 30 min
CC[C@H](C)[C@H](NC(=O)[C@H](CCCCN)NC(=O)[C@H](CCCCN)NC(=O)[C@H](CC(C)C)NC(=O)[C@H](CCCCN)NC(=O)[C@H](CCC(=O)O)NC(=O)[C@H](CCCCN)NC(=O)[C@@H](NC(=O)[C@H](CCCCN)NC(=O)[C@H](CC(N)=O)NC(=O)[C@H](CCCNC(=N)N)NC(=O)[C@H](Cc1ccccc1)NC(=O)[C@H](CCCCN)NC(=O)[C@H](CCCNC(=N)N)NC(=O)[C@H](CC(C)C)NC(=O)[C@H](CCCNC(=N)N)NC(=O)[C@H](CCCCN)NC(=O)[C@H](CCCNC(=N)N)NC(=O)[C@H](CC(C)C)NC(=O)CN)[C@@H](C)CC)C(=O)NCC(=O)N[C@@H](CCC(N)=O)C(=O)N[C@@H](CCCCN)C(=O)N[C@H](C(=O)N[C@@H](CCC(N)=O)C(=O)NCC(=O)N[C@@H](Cc1ccccc1)C(=O)N[C@H](C(=O)N1CCC[C@H]1C(=O)N[C@@H](CCCCN)C(=O)N[C@@H](CC(C)C)C(=O)N[C@@H](C)C(=O)N1CCC[C@H]1C(=O)N[C@@H](CCCNC(=N)N)C(=O)N[C@H](C(=O)N[C@@H](CC(=O)O)C(=O)N[C@@H](Cc1ccc(O)cc1)C(=O)O)[C@@H](C)O)C(C)C)[C@@H](C)CC | inhibition zone | ATCC 25922 |  | lethal concentration | 1.46 µM
CCCCCC(=O)NCC(=O)N[C@@H](CC(C)C)C(=O)N[C@@H](CC(C)C)C(=O)N[C@@H](CCCCN)C(=O)N[C@@H](CCCNC(=N)N)C(=O)N[C@H](C(=O)N[C@@H](CCCCN)C(=O)N[C@H](C(=O)N[C@@H](CC(C)C)C(=O)N[C@@H](CC(C)C)C(=O)NCCCC[C@H](NC(=O)[C@H](CCCCNC(=O)[C@H](CC(C)C)NC(=O)[C@H](CC(C)C)NC(=O)[C@@H](NC(=O)[C@H](CCCCN)NC(=O)[C@@H](NC(=O)[C@H](CCCNC(=N)N)NC(=O)[C@H](CCCCN)NC(=O)[C@H](CC(C)C)NC(=O)[C@H](CC(C)C)NC(=O)CNC(=O)CCCCC)[C@@H](C)CC)[C@@H](C)O)NC(=O)[C@H](CC(C)C)NC(=O)[C@H](CC(C)C)NC(=O)[C@@H](NC(=O)[C@H](CCCCN)NC(=O)[C@@H](NC(=O)[C@H](CCCNC(=N)N)NC(=O)[C@H](CCCCN)NC(=O)[C@H](CC(C)C)NC(=O)[C@H](CC(C)C)NC(=O)CNC(=O)CCCCC)[C@@H](C)CC)[C@@H](C)O)C(N)=O)[C@@H](C)O)[C@@H](C)CC | checkerboard | ATCC 25922 | together with: rifampicin | FIC index | 0.25
CC[C@H](C)[C@H](NC(=O)[C@H](CCCCN)NC(=O)[C@H](CCCCN)NC(=O)[C@H](CC(C)C)NC(=O)[C@H](CCCCN)NC(=O)[C@H](CCC(=O)O)NC(=O)[C@H](CCCCN)NC(=O)[C@@H](NC(=O)[C@H](CCCCN)NC(=O)[C@H](CC(N)=O)NC(=O)[C@H](CCCNC(=N)N)NC(=O)[C@H](Cc1ccccc1)NC(=O)[C@H](CCCCN)NC(=O)[C@H](CCCNC(=N)N)NC(=O)[C@H](CC(C)C)NC(=O)[C@H](CCCNC(=N)N)NC(=O)[C@H](CCCCN)NC(=O)[C@H](CCCNC(=N)N)NC(=O)[C@H](CC(C)C)NC(=O)[C@@H](N)CCCNC(=N)N)[C@@H](C)CC)C(=O)NCC(=O)N[C@@H](CCC(N)=O)C(=O)N[C@@H](CCCCN)C(=O)N[C@H](C(=O)N[C@@H](CCC(N)=O)C(=O)NCC(=O)N[C@@H](Cc1ccccc1)C(=O)N[C@H](C(=O)N1CCC[C@H]1C(=O)N[C@@H](CCCCN)C(=O)N[C@@H](CC(C)C)C(=O)N[C@@H](CCC(N)=O)C(=O)N1CCC[C@H]1C(=O)N[C@@H](CO)C(=O)N[C@@H](CCCCN)C(=O)N[C@@H](CCC(N)=O)C(=O)N[C@@H](CO)C(=O)O)C(C)C)[C@@H](C)CC | inhibition zone | TOP10 |  | lethal concentration | 2.85 µM
CCCC(=O)NCC(=O)N[C@@H](CC(C)C)C(=O)N[C@@H](CC(C)C)C(=O)N[C@@H](CCCCN)C(=O)N[C@@H](CCCNC(=N)N)C(=O)N[C@H](C(=O)N[C@@H](CCCCN)C(=O)N[C@H](C(=O)N[C@@H](CC(C)C)C(=O)N[C@@H](CC(C)C)C(=O)NCCCC[C@H](NC(=O)[C@H](CCCCNC(=O)[C@H](CC(C)C)NC(=O)[C@H](CC(C)C)NC(=O)[C@@H](NC(=O)[C@H](CCCCN)NC(=O)[C@@H](NC(=O)[C@H](CCCNC(=N)N)NC(=O)[C@H](CCCCN)NC(=O)[C@H](CC(C)C)NC(=O)[C@H](CC(C)C)NC(=O)CNC(=O)CCC)[C@@H](C)CC)[C@@H](C)O)NC(=O)[C@H](CC(C)C)NC(=O)[C@H](CC(C)C)NC(=O)[C@@H](NC(=O)[C@H](CCCCN)NC(=O)[C@@H](NC(=O)[C@H](CCCNC(=N)N)NC(=O)[C@H](CCCCN)NC(=O)[C@H](CC(C)C)NC(=O)[C@H](CC(C)C)NC(=O)CNC(=O)CCC)[C@@H](C)CC)[C@@H](C)O)C(N)=O)[C@@H](C)O)[C@@H](C)CC | checkerboard | ATCC 25922 | together with: gentamicin | FIC index | 0.562
